Measured values gathered from unrelated publications.
Target: Mitogen-activated protein kinase kinase kinase kinase 2 (MAP4K2, Homo sapiens, UniProt Q12851)

The inhibition of `CCn1cc(C(=O)O)c(=O)c2c(N)c(F)c(NC3CCCCC3)cc21` is reported as -2.2% (kinase activity; 0.1 µM, together with: ATP at Km).
The remaining binding of `Cc1ccc(-c2c(/C=C(\C#N)C(=O)NC(C)C)n(CCCO)c3ncnc(N)c23)cc1` is reported as 77% (cell-free assay, competition with immobilised ligand; 1 µM).
For `O=C(Cc1ccc(OCc2ccccc2)cc1)NC1(C(=O)O)CCN(C(=O)c2ccc(-c3cccc(Cl)c3)cc2)CC1`, “activity vs control” read 116% (enzyme activity, inhibitor; 10 µM).
With `Cc1cccc(O[C@H]2CCC[C@@H](C(C)CNCc3ccncc3)C2)c1` (relative stereo) the inhibition was -4% (enzyme activity, inhibitor; 10 µM).
For `CNC1C[S+]2CC[S+]3CC[S+](C1)[Ru-4]321([N]=C=S)[n]2c3ccc(OC)cc3c3c4c(c5cc(F)c[n+]1c5c32)C(=O)NC4=O` (centres unmarked), the remaining binding was 89% (KinomeScan; 0.1 µM; relative to: untreated).
`C=CC(=O)N1CCc2ccc(-n3c(=O)ccc4cnc5ccc(-c6cnn(C)c6)cc5c43)cc21` gave a remaining binding of 100% (KINOMEscan; 1 µM; relative to: DMSO control).
`C=CC(=O)N1CCCC(n2c(=O)c3ncccc3n(Cc3ccc(Oc4ccccc4)cc3)c2=O)C1` (centres unmarked) gave a remaining binding of 100% (cell-free assay, competition with immobilised ligand; 1 µM).
With `CN1CC[C@@H](COc2cnc(C#N)cc2-c2ccn3nc(NC(=O)C4CC4)cc3c2)C1` the inhibition was -1% (enzyme activity, inhibitor; 1 µM).
With `C=CC(=O)Nc1cccc(-c2cnc3[nH]cc(C(=O)NC(C)(C)C)c3n2)c1` the inhibition was 71% (enzyme activity, inhibitor; 0.1 µM).
For `NC(=O)[C@@H](O)C[C@H]1CCc2sc3ncnc(O[C@H]4CC[C@H](N5CCOCC5)CC4)c3c21`, the inhibition was 9% (enzyme activity, inhibitor; 10 µM).
Under “activity vs control”, `CNC(=O)C[C@H](Cc1ccc(C#N)cc1)NC(=O)c1cc(-c2ccc(CN[C@H](C)c3ccc(C)cc3)o2)ccc1Cl` is recorded as 106% (enzyme activity, inhibitor; 1 µM).
`Cc1cnc2nc1Nc1cccc(c1)COC/C=C/COCc1cc(ccc1OCCN1CCOCC1)N2` gave a remaining binding of 81% (binding; 0.1 µM).
For `COc1c(Cl)cccc1Nc1c(-c2ccncc2C#C[C@@]2(C)CCCN2C(=O)/C=C/CN(C)C)[nH]c2c1C(=O)NCC2`, the remaining binding was 62% (binding, competition with immobilised ligand; 3 µM).
For `COc1cc(Nc2nc(C)cc(-c3cnn4nc(OC)ccc34)n2)cc(C(F)(F)F)c1`, the remaining activity was 99% (inhibitor; 1 µM; relative to: control).

For quick reference, copied from above:
The remaining binding of `Cc1ccc(-c2c(/C=C(\C#N)C(=O)NC(C)C)n(CCCO)c3ncnc(N)c23)cc1` is reported as 77% (cell-free assay, competition with immobilised ligand; 1 µM).
For `O=C(Cc1ccc(OCc2ccccc2)cc1)NC1(C(=O)O)CCN(C(=O)c2ccc(-c3cccc(Cl)c3)cc2)CC1`, “activity vs control” read 116% (enzyme activity, inhibitor; 10 µM).
